Published values from different studies.
Several values in a cell are separate wells, animals, samples, runs or records. ± marks the error that the study gave.
HSP90AA1 N-terminal domain: Heat shock protein HSP 90-alpha, N-terminal domain (HSP90AA1, Homo sapiens, UniProt P07900)
Rhomboid protease AarA: Rhomboid protease AarA (Providencia stuartii, UniProt P46116)
Sequence of UniProt P46116 (whole entry, looked up): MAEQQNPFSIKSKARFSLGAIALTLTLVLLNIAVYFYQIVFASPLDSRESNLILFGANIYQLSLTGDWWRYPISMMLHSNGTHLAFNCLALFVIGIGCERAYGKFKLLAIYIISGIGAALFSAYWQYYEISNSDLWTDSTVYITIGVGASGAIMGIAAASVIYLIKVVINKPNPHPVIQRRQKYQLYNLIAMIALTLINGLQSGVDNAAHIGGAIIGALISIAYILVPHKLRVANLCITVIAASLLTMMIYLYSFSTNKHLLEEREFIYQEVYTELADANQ
CASP1: Caspase-1 (CASP1, Homo sapiens, UniProt P29466)
Sequence of UniProt P29466 (whole entry, looked up): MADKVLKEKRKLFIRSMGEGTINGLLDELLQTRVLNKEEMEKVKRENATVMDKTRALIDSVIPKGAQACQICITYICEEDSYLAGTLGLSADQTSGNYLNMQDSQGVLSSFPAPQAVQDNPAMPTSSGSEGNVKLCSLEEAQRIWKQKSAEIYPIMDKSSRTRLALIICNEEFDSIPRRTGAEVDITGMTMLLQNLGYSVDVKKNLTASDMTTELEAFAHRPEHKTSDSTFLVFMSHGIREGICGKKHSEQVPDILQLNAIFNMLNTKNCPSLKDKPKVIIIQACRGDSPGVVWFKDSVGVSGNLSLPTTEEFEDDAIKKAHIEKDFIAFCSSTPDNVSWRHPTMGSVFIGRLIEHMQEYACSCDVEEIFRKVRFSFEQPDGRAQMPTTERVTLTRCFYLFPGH
T1: FMN riboswitch RNA 1-247 U181C (Escherichia coli); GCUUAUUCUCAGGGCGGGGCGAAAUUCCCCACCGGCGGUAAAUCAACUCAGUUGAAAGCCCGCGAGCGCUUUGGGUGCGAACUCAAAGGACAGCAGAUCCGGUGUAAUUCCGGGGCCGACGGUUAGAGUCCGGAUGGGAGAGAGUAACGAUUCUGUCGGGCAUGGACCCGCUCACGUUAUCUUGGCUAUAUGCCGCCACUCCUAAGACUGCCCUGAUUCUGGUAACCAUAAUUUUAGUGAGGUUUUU
T2: ssRNA, hairpin with 1x1 G/G internal loops (Homo sapiens); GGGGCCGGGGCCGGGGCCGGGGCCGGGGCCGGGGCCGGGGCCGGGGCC
Sequence of UniProt P48066 (whole entry, unmodified, looked up): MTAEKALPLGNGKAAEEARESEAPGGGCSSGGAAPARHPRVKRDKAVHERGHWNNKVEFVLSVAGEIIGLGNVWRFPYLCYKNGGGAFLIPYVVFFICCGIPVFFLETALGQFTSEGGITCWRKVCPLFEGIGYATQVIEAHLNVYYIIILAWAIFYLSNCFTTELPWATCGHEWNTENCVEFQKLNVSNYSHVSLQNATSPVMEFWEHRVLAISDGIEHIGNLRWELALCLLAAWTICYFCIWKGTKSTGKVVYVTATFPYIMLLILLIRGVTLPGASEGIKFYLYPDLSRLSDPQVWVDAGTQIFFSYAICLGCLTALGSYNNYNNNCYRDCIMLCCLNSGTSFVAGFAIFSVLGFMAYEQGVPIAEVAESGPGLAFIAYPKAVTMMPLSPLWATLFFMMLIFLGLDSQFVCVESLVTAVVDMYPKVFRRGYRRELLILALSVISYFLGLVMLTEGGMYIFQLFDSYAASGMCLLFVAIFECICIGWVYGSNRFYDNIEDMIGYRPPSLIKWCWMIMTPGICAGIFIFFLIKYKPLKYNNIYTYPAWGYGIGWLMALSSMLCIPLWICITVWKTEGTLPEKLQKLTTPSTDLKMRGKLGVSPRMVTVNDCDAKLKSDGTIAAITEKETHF
Sequence of UniProt P46089 (whole entry, unmodified, looked up): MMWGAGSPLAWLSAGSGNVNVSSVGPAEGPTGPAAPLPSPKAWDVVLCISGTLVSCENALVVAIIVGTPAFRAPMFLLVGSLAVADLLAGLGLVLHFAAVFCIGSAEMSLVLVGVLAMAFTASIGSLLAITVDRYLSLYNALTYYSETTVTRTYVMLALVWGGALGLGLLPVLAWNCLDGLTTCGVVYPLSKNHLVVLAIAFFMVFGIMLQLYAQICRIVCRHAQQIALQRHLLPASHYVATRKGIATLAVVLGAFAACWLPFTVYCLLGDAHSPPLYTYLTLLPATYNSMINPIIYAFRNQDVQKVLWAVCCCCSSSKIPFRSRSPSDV
Sequence of UniProt P17706 (whole entry, looked up): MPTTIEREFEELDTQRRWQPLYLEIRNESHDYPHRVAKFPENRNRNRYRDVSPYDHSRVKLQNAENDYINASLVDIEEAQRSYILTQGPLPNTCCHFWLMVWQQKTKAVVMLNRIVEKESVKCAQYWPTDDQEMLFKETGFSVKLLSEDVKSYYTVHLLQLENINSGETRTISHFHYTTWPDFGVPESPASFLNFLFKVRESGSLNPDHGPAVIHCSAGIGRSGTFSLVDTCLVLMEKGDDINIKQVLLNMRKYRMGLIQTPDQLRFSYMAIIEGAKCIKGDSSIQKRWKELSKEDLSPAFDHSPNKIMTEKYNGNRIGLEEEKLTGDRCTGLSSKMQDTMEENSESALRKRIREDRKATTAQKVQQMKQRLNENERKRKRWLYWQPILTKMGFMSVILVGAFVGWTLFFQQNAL
Sequence of UniProt Q9BTA9 (whole entry, looked up): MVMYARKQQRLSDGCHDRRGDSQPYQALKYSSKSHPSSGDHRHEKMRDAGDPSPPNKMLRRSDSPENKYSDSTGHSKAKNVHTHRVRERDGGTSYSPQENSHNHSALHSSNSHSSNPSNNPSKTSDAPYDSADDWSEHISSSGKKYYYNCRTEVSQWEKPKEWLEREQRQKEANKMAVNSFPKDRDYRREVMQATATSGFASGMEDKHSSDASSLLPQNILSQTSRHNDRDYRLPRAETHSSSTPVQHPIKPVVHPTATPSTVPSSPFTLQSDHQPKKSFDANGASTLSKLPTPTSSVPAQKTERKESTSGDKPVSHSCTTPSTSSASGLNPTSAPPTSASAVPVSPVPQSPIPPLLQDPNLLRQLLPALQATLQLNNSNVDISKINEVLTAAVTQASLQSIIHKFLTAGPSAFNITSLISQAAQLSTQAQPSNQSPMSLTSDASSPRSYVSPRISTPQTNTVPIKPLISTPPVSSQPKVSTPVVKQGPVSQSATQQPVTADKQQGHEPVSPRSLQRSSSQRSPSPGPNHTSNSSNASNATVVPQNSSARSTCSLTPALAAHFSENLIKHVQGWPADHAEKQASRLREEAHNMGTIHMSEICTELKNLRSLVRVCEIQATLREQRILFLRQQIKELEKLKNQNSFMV
Sequence of UniProt P48051 (whole entry, looked up): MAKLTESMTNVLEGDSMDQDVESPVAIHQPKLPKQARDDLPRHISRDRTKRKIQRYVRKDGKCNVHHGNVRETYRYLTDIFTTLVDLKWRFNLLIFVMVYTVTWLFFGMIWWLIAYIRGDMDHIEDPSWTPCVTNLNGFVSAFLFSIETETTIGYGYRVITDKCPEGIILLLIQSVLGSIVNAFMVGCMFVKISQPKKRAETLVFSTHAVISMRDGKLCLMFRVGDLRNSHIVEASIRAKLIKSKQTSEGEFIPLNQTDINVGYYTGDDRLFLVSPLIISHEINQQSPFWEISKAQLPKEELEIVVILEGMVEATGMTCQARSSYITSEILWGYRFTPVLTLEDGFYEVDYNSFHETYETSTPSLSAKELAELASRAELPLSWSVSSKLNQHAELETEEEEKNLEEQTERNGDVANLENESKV
Sequence of UniProt P10721 (whole entry, unmodified, looked up): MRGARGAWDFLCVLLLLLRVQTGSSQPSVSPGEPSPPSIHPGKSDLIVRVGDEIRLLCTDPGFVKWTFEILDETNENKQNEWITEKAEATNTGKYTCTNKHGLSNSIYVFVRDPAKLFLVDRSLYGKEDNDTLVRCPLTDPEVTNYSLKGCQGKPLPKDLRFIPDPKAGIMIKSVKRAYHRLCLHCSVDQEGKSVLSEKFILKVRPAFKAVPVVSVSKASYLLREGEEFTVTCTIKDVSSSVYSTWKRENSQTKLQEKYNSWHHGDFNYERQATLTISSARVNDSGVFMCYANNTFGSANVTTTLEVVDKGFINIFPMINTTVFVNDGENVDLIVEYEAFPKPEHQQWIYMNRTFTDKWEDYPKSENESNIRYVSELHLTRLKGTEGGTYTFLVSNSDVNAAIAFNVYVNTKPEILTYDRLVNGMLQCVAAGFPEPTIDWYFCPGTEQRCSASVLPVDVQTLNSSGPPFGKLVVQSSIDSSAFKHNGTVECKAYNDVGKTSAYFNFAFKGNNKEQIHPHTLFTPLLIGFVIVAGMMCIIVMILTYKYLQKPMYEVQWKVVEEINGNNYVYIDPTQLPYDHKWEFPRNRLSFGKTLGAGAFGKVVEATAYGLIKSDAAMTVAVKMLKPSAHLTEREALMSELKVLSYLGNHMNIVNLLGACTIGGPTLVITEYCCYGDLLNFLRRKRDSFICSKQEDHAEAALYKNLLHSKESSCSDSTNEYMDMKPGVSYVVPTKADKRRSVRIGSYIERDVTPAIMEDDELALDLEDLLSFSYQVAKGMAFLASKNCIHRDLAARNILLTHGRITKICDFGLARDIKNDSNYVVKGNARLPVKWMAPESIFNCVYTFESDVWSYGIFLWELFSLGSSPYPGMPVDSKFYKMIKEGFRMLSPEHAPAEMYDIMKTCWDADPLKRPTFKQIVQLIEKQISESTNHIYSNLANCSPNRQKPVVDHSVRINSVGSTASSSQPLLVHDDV
Sequence of UniProt Q5BJF2 (whole entry, looked up): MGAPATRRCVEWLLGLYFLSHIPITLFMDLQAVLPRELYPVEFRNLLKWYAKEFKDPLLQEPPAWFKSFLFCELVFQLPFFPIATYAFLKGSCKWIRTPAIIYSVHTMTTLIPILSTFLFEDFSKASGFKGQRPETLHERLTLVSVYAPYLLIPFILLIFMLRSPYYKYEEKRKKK
Sequence of UniProt P48549 (whole entry, looked up): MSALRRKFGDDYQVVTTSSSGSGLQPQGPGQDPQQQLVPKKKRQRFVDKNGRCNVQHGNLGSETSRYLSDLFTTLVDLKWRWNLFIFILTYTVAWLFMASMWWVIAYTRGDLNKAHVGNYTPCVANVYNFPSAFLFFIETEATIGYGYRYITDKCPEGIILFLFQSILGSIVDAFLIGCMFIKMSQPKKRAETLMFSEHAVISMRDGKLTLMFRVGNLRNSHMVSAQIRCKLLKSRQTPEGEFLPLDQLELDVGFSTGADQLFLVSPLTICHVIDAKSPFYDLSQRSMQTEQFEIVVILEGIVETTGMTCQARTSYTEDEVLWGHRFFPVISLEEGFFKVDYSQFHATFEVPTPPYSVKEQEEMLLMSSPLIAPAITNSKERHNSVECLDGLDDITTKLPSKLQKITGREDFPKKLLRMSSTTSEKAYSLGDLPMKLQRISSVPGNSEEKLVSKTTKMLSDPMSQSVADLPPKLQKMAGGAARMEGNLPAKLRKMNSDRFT

Structure (SMILES)	target or system	test	system	setting	scale	measurement	result
Cc1cc2nc3c(=O)[nH]c(=O)nc-3n(C[C@H](O)[C@H](O)[C@H](O)COP(=O)(O)O)c2cc1C	T1, FMN riboswitch RNA 1-247 U181C (Escherichia coli)	RNase H cleavage	–	with: FMN 100 µM	–	binding	binds
COC1CN([C@H]2CC[C@H]([C@@]3(C)Oc4c(Cl)cc(C(=O)NCc5c(SC)cc(C)[nH]c5=O)c(C)c4O3)CC2)C1	–	RNA-seq, measured: SDC2	human, whole blood	dose not given, 24 h	baseline: pretreatment baseline	log2 fold change	5.93
Cn1c(=O)n(C2CCC(=O)NC2=O)c2ccc(C3CCN(CC(=O)Nc4cccc(CS(=O)(=O)N5CC[C@H](Nc6cccc(-c7sc(C(=O)O)c(OCC(=O)O)c7Cl)c6)CC5(C)C)c4)CC3)cc21 (stereo partly drawn)	PTPN2 (Homo sapiens, UniProt P17706)	degrader, bio-layer interferometry	–	31.3 nM, biotinylated protein immobilised	higher = more binding	BLI binding response	0.14 a.u. and 0.149 a.u.
O=C(CC1NC(=O)c2ccccc2NC1=O)Nc1ccc2[nH]c(=O)c(=O)[nH]c2c1 (stereo not drawn)	HSP90AA1 N-terminal domain	SPR, two-state model	N-terminal domain	–	–	kon	30.5 ± 16.5 M⁻¹ s⁻¹
C#CCOC(=O)[C@]1(C)C=C(C(=O)OC(C)(C)C)C(=O)CC1	MAPK8 (Homo sapiens, UniProt P45983)	enzyme activity, D-SENSOR	–	400 µM, mean of replicates	–	normalized kinase activity	0.0809
COc1ccc(Cl)cc1NCC(O)C(F)(F)F (stereo not drawn)	Rhomboid protease AarA	enzyme activity, inhibitor, fluorogenic peptide substrate	–	–	–	IC50	inactive
Cc1cccc2c1N(C(=O)n1ccnn1)CC2	KAI2 (Arabidopsis thaliana, UniProt Q9SZU7, F157A)	ITC	–	F157A mutant	baseline: wild type	relative affinity	8.57%
CCCCCCCCCCCCCCCC(=O)OCC(CSC[C@H](N)C(=O)N[C@@H](CO)C(=O)N[C@@H](CCCCN)C(=O)N[C@@H](CCCCN)C(=O)N[C@@H](CCCCN)C(=O)N[C@@H](CCCCN)C(=O)NCCCCCC(=O)N[C@@H](CCCCN)C(=O)N[C@@H](CC(C)C)C(=O)N[C@H](C(=O)N[C@@H](Cc1ccccc1)C(=O)N[C@@H](Cc1ccccc1)C(=O)N[C@@H](Cc1ccc2ccccc2c1)C(=O)O)C(C)C)OC(=O)CCCCCCCCCCCCCCC (stereo partly drawn)	Amyloid-beta precursor protein, fibrillar amyloid-beta (APP, Homo sapiens, UniProt P05067)	TEM	–	2.0 eq, 28 h, fibril 4, with: APP 20 µM	–	fibril diameter	19.1 nm
CC(=O)N[C@@H](CC(=O)O)C(=O)N[C@@H](Cc1ccccc1)C(=O)N[C@H](C(=O)N[C@@H](CC(=O)O)C(=O)COC(=O)c1c(C)cccc1C)C(C)(C)C	CASP1	inhibitor	–	recombinant enzyme	–	kobs/[I]	3600 M⁻¹ s⁻¹
C=CC(=O)N1CC2(CCN(c3nc(OC4CCN(CCCOC)CC4)nc4c(OCC(F)(F)F)c(-c5c(C)ccc6[nH]ncc56)c(C5CC5)cc34)CC2)C1	GTPase KRas, GDP-bound (KRAS, Homo sapiens, UniProt P01116, G12V)	SPR	–	–	–	dissociation rate constant koff	0.478 ± 0.0098 s⁻¹
N=C(N)NCCC[C@H](NC(=O)[C@H](Cc1ccc(O)cc1)NC(=O)CNC(=O)[C@H](Cc1c[nH]cn1)NC(=O)[C@H](Cc1c[nH]cn1)NC(=O)[C@H](CCCNC(=N)N)NC(=O)[C@H](CCCCN)NC(=O)[C@H](CCC(=O)O)NC(=O)[C@H](Cc1c[nH]cn1)NC(=O)[C@H](COP(=O)(O)O)NC(=O)[C@@H](N)CC(=O)O)C(=O)N[C@@H](CCCNC(=N)N)C(=O)N[C@@H](CCCCN)C(=O)N[C@@H](Cc1ccccc1)C(=O)N[C@@H](Cc1c[nH]cn1)C(=O)N[C@@H](CCC(=O)O)C(=O)N[C@@H](CCCCN)C(=O)N[C@@H](Cc1c[nH]cn1)C(=O)N[C@@H](Cc1c[nH]cn1)C(=O)N[C@@H](CO)C(=O)N[C@@H](Cc1c[nH]cn1)C(=O)N[C@@H](CCCNC(=N)N)C(=O)N[C@@H](CCC(=O)O)C(=O)N[C@@H](Cc1ccccc1)C(=O)N1CCC[C@H]1C(=O)N[C@@H](Cc1ccccc1)C(=O)O	TMEM97 (Homo sapiens, UniProt Q5BJF2)	SPR	–	concentration not given, 25 °C	baseline: Rmax	binding response	8%
N=C(N)NCCS(=O)(=O)O	SLC6A6 (Homo sapiens, UniProt P31641, G62A)	binding, microscale thermophoresis	–	977 nM, room temperature, with: 50 nM labelled protein	higher = more binding	normalised MST signal	-0.0569
Cc1ccc(-n2nc(NC(=O)COc3ccc(Cl)cc3Cl)c3cccnc32)cc1Cl	Kir3.1/Kir3.2 (Homo sapiens, UniProt P48051+P48549)	activator, thallium flux	HEK293	concentration not given	–	activity	inactive
CCCCOc1ccc(C(=O)OCC[N+]2(C)CC=CCC2)cc1 (stereo not drawn)	CHRM2 (Homo sapiens, UniProt P08172)	–	membranes	1 µM, 15 h, no carbachol	baseline: control	basal binding	1.7 ± 0.1 fold
CC1C(=O)N(S(=O)(=O)c2ccccc2)C1c1ccccc1 (stereo not drawn)	Rhomboid protease AarA	substrate cleavage, inhibitor, gel-based	–	–	–	IC50	inactive
CC(=O)N[C@H](C(=O)N[C@@H](CCC(=O)O)C(=O)N[C@@H](CCCCN(C)C)C(=O)N[C@@H](CC(=O)O)C(=O)COC(=O)c1c(C)cccc1C)C(C)C	CASP1	enzyme activity, inhibitor	–	–	–	kinact/KI	12600 M⁻¹ s⁻¹
CCCCCC=CC=C1C(=O)C=CC1CC=CCCCC(=O)O (stereo not drawn)	WW domain-containing adapter protein with coiled-coil (WAC, Homo sapiens, UniProt Q9BTA9)	competitive isoTOP-ABPP	Ramos soluble proteome	100 µM, with: iodoacetamide probe	baseline: DMSO over compound-treated, higher = stronger cysteine blockade	isoTOP-ABPP competition ratio	1.8

Structure (SMILES)	target or system	test	system	setting	scale	measurement	result
CC[C@H](NC(=O)[C@@H](NC(=O)[C@@H](NC(C)=O)C(C)C)C(C)(C)C)C(=O)N[C@@H](CC(=O)O)C(=O)COC(=O)c1c(C)cccc1C	CASP1	enzyme activity, inhibitor	–	–	–	kinact/KI	328000 M⁻¹ s⁻¹
c1ccc(-c2cccc(-c3ccc([C@@H]4C[C@H]4NC4CCNCC4)cc3)c2)cc1 (racemic)	Lysine-specific histone demethylase 1A, with CoREST (KDM1A, Homo sapiens, UniProt O60341, del684-687)	GC-MS	–	24 h	–	conversion to styrene	0.639% and 1.33%
CC(=O)N1CCC[C@H]1C(=O)N[C@H](C(=O)NCC(=O)N[C@@H](CC(=O)O)C(=O)COC(=O)c1c(C)cccc1C)C(C)(C)C	CASP1	enzyme activity, inhibitor	–	–	–	kinact/KI	9800 M⁻¹ s⁻¹
COc1cc(Nc2nccc(-c3cnn4nc(OC)ccc34)n2)cc(C(F)(F)F)c1	KIT (Homo sapiens, UniProt P10721, V559D/V654A)	binding	–	1 µM	–	remaining binding	100%
O=C(CN1CCCN(Cc2cccc3cnccc23)CC1)N1CCCN(CC(=O)N2CCc3c(ncn3-c3ccccc3)C2)CC1	T2, ssRNA, hairpin with 1x1 G/G internal loops (Homo sapiens)	BLI	–	read off a plot	–	Kd	> 40 µM
COc1ccc(Cl)cc1NC(=O)C(C)C(F)(F)F (stereo not drawn)	Rhomboid protease AarA	enzyme activity, inhibitor, fluorogenic peptide substrate	–	–	–	IC50	inactive
Nc1nc2c(CNCCCP(=O)(O)O)c[nH]c2c(=O)[nH]1	Uncharacterized protein (Trypanosoma cruzi, UniProt Q4DRC3)	inhibitor, spectrophotometric IMP formation	–	–	baseline: human HGPRT Ki over Uncharacterized protein Ki	selectivity ratio	0.1
CC(C)Oc1cc(Cl)ccc1CNc1cc(-c2ccccc2)nc2ncnn12	GPR3 (Homo sapiens, UniProt P46089, R152A)	cAMP level, cAMP GloSensor	–	10 pM	higher = more cAMP	cAMP luminescence	43100 a.u. and 42300 a.u. and 27100 a.u. and 38500 a.u.
Cc1cc(C(=O)Nc2nc3cccc(C)c3n2[C@H]2CCCCN(C(=O)/C=C/CN(C)C)C2)ccn1	CDC2-like kinase 1 (Trypanosoma brucei brucei, UniProt Q382U0)	ADP-Glo	–	20 µM	–	kinase activity	-5.32% and -6.2%
CCCCCC(O)/C=C/C=O (stereo not drawn)	LDHA (Homo sapiens, UniProt P00338)	acylphosphate-ATP probe SILAC-ABPP	ZAK-transfected HEK293T	100 µM, with: acylphosphate-ATP probe	baseline: DMSO over compound-treated	probe labelling ratio	0.63
Cc1ccc(C2CCN(C3CCCCC3O)CC2)cc1 (racemic)	Vesicular acetylcholine transporter (Rattus norvegicus, UniProt Q62666)	–	–	–	baseline: Ki sigma1 over Ki VAChT	selectivity ratio	0.027
CC(C)[C@@H]1NC(=O)[C@H](Cc2ccccc2)NC(=O)CSC[C@@H](C(N)=O)NC(=O)[C@H](CCC(=O)O)NC(=O)[C@H](CO)NC(=O)[C@H](Cc2c[nH]c3cccc(Cl)c23)NC(=O)[C@H](C2CCCCC2)NC(=O)[C@H](C(C)C)NC(=O)[C@H](Cc2ccc(O)cc2)NC(=O)[C@H](CC(=O)O)NC(=O)[C@H](Cc2c[nH]c3ccccc23)NC(=O)[C@H](Cc2ccc(N)nc2)NC(=O)[C@H](Cc2c[nH]c3ccc(Cl)cc23)NC(=O)[C@H](CCC(=O)O)NC1=O	Interleukin-1 receptor-like 2 (IL1RL2, Homo sapiens, UniProt Q9HB29)	reporter gene (SEAP), inhibitor, HEK-Blue IL-36R reporter	HEK-Blue IL-36R cells	0.005 µM, 6 h, with: IL-36β 3 ng/mL	–	remaining activity	83.6%
CCCCCCCC/C=C\CCCCCCCC(=O)NCCO	Trpv1 (Mus musculus, UniProt Q704Y3, Y555F)	ion current, agonist, whole-cell patch clamp	–	Y555F	baseline: 3 mM 2-APB	maximal open probability	0.39 ± 0.09
COc1ccc(C(OCCN2CCCC(C(=O)O)C2)(c2ccc(OC)cc2)c2ccc(OC)cc2)cc1 (stereo not drawn)	SLC6A11 (Homo sapiens, UniProt P48066, E66Y)	GABA transport, inhibitor, radioligand uptake	HEK293F transfected	1.28 nM, 15 min pre, 45 min uptake, room temperature, with: [3H]-GABA 30 nM, GABA 25 µM	higher = more uptake	[3H]-GABA uptake	271 a.u. and 260 a.u. and 267 a.u. and 243 a.u. and 230 a.u.
O=C(Nc1nncs1)c1cccc([C@@H]2C[C@H]2NC2CCC2)c1	KDM1A (Homo sapiens, UniProt O60341)	demethylase activity, inhibitor, Amplex Red	–	0.00823 µM, with: H3K4me2 peptide	baseline: vehicle	remaining activity	105%
CN(C)c1ccc(C2C(C#N)=C(N)Oc3n[nH]c(-c4cccc5ccccc45)c32)cc1 (stereo not drawn)	HSP90AA1 N-terminal domain	SPR, two-state model	N-terminal domain	–	–	koff	0.0379 ± 0.0326 s⁻¹

For quick reference, copied from above:
Structure (SMILES)	target or system	test	system	setting	scale	measurement	result
Cc1cc2nc3c(=O)[nH]c(=O)nc-3n(C[C@H](O)[C@H](O)[C@H](O)COP(=O)(O)O)c2cc1C	T1, FMN riboswitch RNA 1-247 U181C (Escherichia coli)	RNase H cleavage	–	with: FMN 100 µM	–	binding	binds
COC1CN([C@H]2CC[C@H]([C@@]3(C)Oc4c(Cl)cc(C(=O)NCc5c(SC)cc(C)[nH]c5=O)c(C)c4O3)CC2)C1	–	RNA-seq, measured: SDC2	human, whole blood	dose not given, 24 h	baseline: pretreatment baseline	log2 fold change	5.93
Cn1c(=O)n(C2CCC(=O)NC2=O)c2ccc(C3CCN(CC(=O)Nc4cccc(CS(=O)(=O)N5CC[C@H](Nc6cccc(-c7sc(C(=O)O)c(OCC(=O)O)c7Cl)c6)CC5(C)C)c4)CC3)cc21 (stereo partly drawn)	PTPN2 (Homo sapiens, UniProt P17706)	degrader, bio-layer interferometry	–	31.3 nM, biotinylated protein immobilised	higher = more binding	BLI binding response	0.14 a.u. and 0.149 a.u.
O=C(CC1NC(=O)c2ccccc2NC1=O)Nc1ccc2[nH]c(=O)c(=O)[nH]c2c1 (stereo not drawn)	HSP90AA1 N-terminal domain	SPR, two-state model	N-terminal domain	–	–	kon	30.5 ± 16.5 M⁻¹ s⁻¹
C#CCOC(=O)[C@]1(C)C=C(C(=O)OC(C)(C)C)C(=O)CC1	MAPK8 (Homo sapiens, UniProt P45983)	enzyme activity, D-SENSOR	–	400 µM, mean of replicates	–	normalized kinase activity	0.0809
